# Results from different studies.
# Compare with care: the assays were run in different laboratories. Values joined by “and” are separate records of one study, mostly repeats; a detail may differ. ± gives the spread as reported.
SMILES,cell line,effect on,method,time,setting,IC50
Cc1ccc(C2=NN(C3=NC(=O)C(=Cc4ccc(O)cc4)S3)C(c3ccc(F)cc3)C2)cc1 (stereo not shown),MCF-10A,cell growth or viability,,,,48.2 µM
Cc1[nH][n+]([Pd-2]([Cl])([Cl])[n+]2[nH]c(C)c(CSCc3ccccc3)c2C)c(C)c1CSCc1ccccc1,U-937,cytotoxicity,7-AAD flow cytometry,24 h,,0.6 ± 0.04 µM
COc1ccc(C2=NN(C3=NC(=O)C(=Cc4ccc(O)cc4)S3)C(c3ccc(F)cc3)C2)cc1 (stereo not shown),MCF-10A,cell growth or viability,,,,55 µM
CC(C)COC1O[C@@H]2O[C@@]3(C)CC[C@H]4[C@H](C)CCC([C@H]1C)[C@@]24OO3 (stereo partly shown),CEM/ADR5000 (multidrug-resistant),cell viability,XTT,,10% fetal calf serum,7.96 ± 3.76 µM
C[C@@H]1O[C@@H](OC(=O)/C=C/c2ccc(O)c(O)c2)[C@H](OC(=O)/C=C/c2ccc(O)c(O)c2)[C@H](O)[C@H]1O,MCF-10A,cytotoxicity,MTT,48 h,,25.8 ± 1.28 µM
O=C(/C=C/c1ccccc1)Oc1ccc2c(c1)O/C(=C\C=C\c1ccccc1)C2=O,LO2,cytotoxicity,MTT,72 h,,25.1 µM
CC1=CC2(C)C(=C(C)C3C4CC(C)CC(C)C4C4Oc5ccc(cc5)CC5(O)NC(=O)C(=C(O)C2C43)C5Nc2ncnc3c2ncn3C2OC(CO)C(O)C2O)C1C (stereo not shown),MDA-MB-231,cell growth or viability,ATP luminescence,2 h,,45.4 µM
CCCC(CCC)C(=O)[O][Pt]([Cl])([Cl])[O]C(=O)C(CCC)CCC.N.N,HCT-116 p53+/+,cytotoxicity,,72 h,,0.46 ± 0.07 µM
C[C@H]1C(NCCS)O[C@@H]2O[C@@]3(C)CC[C@H]4[C@H](C)CCC1[C@@]24OO3 (stereo partly shown),CEM/ADR5000 (multidrug-resistant),cell viability,XTT,,10% fetal calf serum,3.34 ± 0.64 µM
CCCCCCCC(=O)Oc1c(C)c(OC)c2c(c1C)OC(=O)[C@@H](CCCCCC)[C@]2(O)/C=C/c1ccccc1 (racemic),CL normal liver cells,cytotoxicity,sulforhodamine B,72 h,,35.9 µM
O=C(Cc1ccccc1)Nc1nc2ccccc2n1Cc1ccccc1,MDA-MB-231,cell growth or viability,SRB,,,10.8 µM and ~10 µM
Cc1[nH][n+]([Pd-2]([Br])([Br])[n+]2[nH]c(C)c(CSCc3ccccc3)c2C)c(C)c1CSCc1ccccc1,U-937,cytotoxicity,7-AAD flow cytometry,24 h,,0.71 ± 0.04 µM
COc1c(C)c(OS(=O)(=O)c2ccccc2)c(C)c2c1C(=O)CC(c1ccccc1)O2 (stereo not shown),CL normal liver cells,cytotoxicity,sulforhodamine B,72 h,,> 50 µM
O=C(O)c1ccccc1Nc1ccc(Oc2ccccc2)cc1,MDA-kb2,cytotoxicity,,20 h,,181 ± 99.4 µM
COc1c(C)c(OC(=O)c2ccccc2)c(C)c(OC(=O)c2ccccc2)c1C(=O)/C=C/c1ccccc1,CL normal liver cells,cytotoxicity,sulforhodamine B,72 h,,25.3 µM
CCCCn1cc(C(=O)O)c(=O)c2cc(F)c3[nH]nnc3c21,HCT-116,cell growth,SRB,72 h,,74.8 ± 1.2 µg/mL

# For quick reference, copied from above:
SMILES,cell line,effect on,method,time,setting,IC50
CC(C)COC1O[C@@H]2O[C@@]3(C)CC[C@H]4[C@H](C)CCC([C@H]1C)[C@@]24OO3 (stereo partly shown),CEM/ADR5000 (multidrug-resistant),cell viability,XTT,,10% fetal calf serum,7.96 ± 3.76 µM
